Assay results of several laboratories.
Every numbered part comes from another study and shows a few of its results, in no order. Values joined by “and” are separate records of one study, mostly repeats; a detail may differ.
Chain of UniProt Q96PF2 (whole entry, looked up): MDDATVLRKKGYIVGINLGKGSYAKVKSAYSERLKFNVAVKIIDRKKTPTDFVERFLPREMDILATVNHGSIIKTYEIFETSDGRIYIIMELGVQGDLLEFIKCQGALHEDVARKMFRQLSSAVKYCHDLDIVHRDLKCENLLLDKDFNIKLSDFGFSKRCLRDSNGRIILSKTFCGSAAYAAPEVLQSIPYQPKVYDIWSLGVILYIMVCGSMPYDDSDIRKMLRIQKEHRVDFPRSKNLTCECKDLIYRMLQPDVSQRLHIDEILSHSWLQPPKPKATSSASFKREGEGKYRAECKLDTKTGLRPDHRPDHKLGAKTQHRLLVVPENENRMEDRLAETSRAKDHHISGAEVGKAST
Chain of UniProt O15264 (whole entry, looked up): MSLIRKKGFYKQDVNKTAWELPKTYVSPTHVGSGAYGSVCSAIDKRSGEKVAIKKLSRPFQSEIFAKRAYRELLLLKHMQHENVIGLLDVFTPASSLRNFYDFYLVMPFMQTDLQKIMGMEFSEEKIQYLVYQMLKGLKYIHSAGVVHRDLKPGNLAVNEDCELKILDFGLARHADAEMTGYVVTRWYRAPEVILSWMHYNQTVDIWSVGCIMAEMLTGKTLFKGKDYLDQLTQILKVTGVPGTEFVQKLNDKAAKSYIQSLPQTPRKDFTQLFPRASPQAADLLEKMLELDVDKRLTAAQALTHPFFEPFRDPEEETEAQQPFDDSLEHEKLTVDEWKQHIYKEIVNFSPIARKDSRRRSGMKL
Chain of UniProt Q99640 (whole entry, looked up): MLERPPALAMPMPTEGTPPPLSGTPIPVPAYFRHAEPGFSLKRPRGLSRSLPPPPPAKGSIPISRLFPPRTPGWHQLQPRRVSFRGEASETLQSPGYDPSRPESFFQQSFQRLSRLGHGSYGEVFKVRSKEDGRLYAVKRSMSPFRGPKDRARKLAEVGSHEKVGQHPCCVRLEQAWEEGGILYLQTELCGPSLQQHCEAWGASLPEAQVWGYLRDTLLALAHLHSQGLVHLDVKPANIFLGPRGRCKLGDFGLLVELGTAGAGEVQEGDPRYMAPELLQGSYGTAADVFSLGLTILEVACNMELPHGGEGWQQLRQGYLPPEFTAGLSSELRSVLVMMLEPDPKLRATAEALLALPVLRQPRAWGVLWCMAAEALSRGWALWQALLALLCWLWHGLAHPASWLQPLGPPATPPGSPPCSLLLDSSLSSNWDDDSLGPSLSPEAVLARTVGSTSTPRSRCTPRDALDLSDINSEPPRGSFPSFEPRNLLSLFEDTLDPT

Series 1
Structure (SMILES): CCN1C(=O)C(O)(C(=O)O)Oc2cc(F)ccc21 (stereo not shown)
Organism: Arabidopsis thaliana
Strain: Col-0
Endpoint: hypocotyl length
50 µg/mL, seed germination, repetition mean: 1.63 cm
12.5 µg/mL, seed germination, repetition mean: 1.87 cm
25 µg/mL, seed germination, repetition mean: 1.73 cm
12.5 µg/mL, seed germination, single repetition: 1.81 cm and 1.93 cm and 1.85 cm and 1.8 cm and 1.9 cm
25 µg/mL, seed germination, single repetition: 1.72 cm and 1.7 cm and 1.73 cm and 1.71 cm
3.125 µg/mL, seed germination, repetition mean: 2.22 cm
100 µg/mL, seed germination, single repetition: 1.25 cm and 1.2 cm and 1.26 cm and 1.21 cm
6.25 µg/mL, seed germination, single repetition: 2.11 cm and 2.02 cm and 2.03 cm and 1.98 cm and 2 cm

Series 2
Compound: CCOc1ccc2nc(Sc3nc(Nc4ccc(OC)cc4)nc(N4CCOCC4)n3)sc2c1
Target: 1-phosphatidylinositol 3-phosphate 5-kinase (PIKFYVE, Homo sapiens, UniProt Q9Y2I7)
Chain of UniProt Q9Y2I7 (whole entry, looked up): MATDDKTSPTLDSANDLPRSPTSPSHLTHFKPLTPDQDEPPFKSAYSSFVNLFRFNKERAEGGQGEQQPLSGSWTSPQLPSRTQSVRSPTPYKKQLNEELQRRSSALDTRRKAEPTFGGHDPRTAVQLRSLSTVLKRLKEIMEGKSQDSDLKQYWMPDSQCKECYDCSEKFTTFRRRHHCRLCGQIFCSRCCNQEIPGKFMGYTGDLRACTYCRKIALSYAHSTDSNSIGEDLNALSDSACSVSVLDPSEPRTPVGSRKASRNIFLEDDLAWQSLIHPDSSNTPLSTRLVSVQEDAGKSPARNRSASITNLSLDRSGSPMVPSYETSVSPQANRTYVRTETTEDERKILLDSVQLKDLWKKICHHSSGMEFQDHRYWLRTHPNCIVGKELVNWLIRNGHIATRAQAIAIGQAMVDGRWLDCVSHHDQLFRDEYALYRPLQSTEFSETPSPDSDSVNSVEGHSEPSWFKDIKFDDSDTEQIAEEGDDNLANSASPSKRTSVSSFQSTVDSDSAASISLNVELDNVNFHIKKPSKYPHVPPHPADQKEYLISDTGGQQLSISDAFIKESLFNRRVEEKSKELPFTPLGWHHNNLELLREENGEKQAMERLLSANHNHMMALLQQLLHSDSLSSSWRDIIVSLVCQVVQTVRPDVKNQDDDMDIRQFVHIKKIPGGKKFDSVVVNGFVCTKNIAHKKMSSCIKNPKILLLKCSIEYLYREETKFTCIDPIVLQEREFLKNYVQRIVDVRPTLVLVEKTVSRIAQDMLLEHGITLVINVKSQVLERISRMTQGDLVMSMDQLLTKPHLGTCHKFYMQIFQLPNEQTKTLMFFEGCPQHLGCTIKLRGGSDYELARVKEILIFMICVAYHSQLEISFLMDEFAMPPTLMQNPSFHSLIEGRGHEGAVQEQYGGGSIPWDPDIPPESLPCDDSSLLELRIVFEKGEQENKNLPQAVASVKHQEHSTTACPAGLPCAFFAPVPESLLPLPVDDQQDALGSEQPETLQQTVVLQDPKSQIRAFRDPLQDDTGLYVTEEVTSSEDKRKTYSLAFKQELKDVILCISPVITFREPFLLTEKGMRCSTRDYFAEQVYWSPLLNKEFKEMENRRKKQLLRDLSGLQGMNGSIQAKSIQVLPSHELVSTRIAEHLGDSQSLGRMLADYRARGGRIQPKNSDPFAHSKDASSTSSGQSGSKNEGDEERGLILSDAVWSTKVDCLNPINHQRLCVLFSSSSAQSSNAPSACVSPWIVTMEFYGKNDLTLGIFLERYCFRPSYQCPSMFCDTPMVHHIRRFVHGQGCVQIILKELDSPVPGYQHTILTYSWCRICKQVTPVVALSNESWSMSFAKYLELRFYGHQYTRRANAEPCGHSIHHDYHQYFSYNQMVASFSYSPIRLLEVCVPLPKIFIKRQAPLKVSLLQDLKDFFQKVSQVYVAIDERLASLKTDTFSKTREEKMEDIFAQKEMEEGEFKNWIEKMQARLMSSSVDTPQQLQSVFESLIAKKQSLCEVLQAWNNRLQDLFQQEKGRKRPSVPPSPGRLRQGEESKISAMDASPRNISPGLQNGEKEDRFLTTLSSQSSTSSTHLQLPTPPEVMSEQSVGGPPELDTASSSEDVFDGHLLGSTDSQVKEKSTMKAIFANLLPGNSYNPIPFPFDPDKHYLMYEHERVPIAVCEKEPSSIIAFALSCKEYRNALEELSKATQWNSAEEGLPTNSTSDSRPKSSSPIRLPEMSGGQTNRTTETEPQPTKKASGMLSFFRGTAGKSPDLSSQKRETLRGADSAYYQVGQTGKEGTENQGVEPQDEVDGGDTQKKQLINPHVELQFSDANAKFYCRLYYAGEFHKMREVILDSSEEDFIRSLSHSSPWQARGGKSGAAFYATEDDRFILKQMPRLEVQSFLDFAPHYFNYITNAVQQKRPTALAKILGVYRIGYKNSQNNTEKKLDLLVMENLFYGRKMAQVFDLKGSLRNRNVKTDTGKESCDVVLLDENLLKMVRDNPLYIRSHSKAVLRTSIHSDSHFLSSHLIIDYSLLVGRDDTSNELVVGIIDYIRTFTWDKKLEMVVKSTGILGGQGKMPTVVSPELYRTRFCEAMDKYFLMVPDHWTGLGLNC
Technique: KINOMEscan
Setting: unit not given
Relative to: DMSO
Endpoint: remaining binding
3300 nM: 0.0052 and 0.0085
4.53 nM: 1.07 and 0.936
10000 nM: 0.00271 and 0.00218
4.57 nM: 0.971 and 1.02
0.503 nM: 1.05 and 0.98
13.6 nM: 0.815 and 0.813
123 nM: 0.516 and 0.61
40.7 nM: 0.744 and 0.704

Series 3
SMILES: C[C@@H]1CN(c2ccc(-c3cc(C(=O)NCCOCCOCCOCCOCCNC(=O)Cn4cc(-c5[nH]cc(C(=O)N[C@@H](CC(N)=O)c6ccc(F)c(Cl)c6)c5-c5ccc(Cl)cc5F)cn4)ccc3F)cc2NC(=O)c2c[nH]c(=O)cc2C(F)(F)F)C[C@H](C)N1C
Read-out: thermal unfolding
Technique: differential scanning fluorimetry
Tested at: 5.5 µM
Direction: higher = more unfolded
Endpoint: SYPRO Orange fluorescence
DCAF1: DDB1- and CUL4-associated factor 1 (DCAF1, Homo sapiens, UniProt Q9Y4B6)
Chain of UniProt Q9Y4B6 (whole entry, looked up): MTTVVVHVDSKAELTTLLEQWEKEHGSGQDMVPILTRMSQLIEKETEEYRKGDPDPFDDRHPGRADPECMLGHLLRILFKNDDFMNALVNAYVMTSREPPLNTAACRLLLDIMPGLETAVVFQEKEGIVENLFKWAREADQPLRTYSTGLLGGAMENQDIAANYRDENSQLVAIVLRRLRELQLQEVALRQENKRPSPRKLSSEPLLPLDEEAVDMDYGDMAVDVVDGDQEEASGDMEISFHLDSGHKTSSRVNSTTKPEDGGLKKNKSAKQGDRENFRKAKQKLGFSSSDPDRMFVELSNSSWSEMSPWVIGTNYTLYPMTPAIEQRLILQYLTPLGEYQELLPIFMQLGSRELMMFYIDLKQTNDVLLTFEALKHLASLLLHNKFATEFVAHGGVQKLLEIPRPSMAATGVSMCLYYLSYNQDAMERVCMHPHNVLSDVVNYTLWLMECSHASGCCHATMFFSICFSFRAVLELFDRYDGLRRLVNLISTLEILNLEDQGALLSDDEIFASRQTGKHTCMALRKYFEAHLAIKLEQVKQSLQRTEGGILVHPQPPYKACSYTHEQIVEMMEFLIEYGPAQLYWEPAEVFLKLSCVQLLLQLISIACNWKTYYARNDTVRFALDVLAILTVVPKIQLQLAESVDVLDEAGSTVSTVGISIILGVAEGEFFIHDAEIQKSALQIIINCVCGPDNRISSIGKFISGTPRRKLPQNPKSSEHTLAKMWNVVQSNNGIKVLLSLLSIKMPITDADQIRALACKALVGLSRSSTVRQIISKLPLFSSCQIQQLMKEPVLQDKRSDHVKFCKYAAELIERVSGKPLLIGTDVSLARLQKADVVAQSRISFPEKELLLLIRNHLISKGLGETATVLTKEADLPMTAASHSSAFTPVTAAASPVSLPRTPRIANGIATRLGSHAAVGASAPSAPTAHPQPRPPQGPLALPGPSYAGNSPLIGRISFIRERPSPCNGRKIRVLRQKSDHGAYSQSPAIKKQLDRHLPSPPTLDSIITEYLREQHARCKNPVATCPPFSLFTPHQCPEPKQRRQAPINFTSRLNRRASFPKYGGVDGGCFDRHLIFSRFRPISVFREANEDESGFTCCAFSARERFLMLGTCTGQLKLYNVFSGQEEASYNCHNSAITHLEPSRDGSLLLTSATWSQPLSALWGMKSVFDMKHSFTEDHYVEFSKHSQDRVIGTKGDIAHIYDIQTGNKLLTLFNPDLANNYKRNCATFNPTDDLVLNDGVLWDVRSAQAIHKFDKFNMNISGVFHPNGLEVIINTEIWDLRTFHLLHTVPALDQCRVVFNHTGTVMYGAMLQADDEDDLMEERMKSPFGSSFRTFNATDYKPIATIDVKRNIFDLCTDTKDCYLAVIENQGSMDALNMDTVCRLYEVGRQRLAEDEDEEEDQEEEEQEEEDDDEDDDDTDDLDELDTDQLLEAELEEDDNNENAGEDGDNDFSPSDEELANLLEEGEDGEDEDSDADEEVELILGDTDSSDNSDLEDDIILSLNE
WDR5: WD repeat-containing protein 5 (WDR5, Homo sapiens, UniProt P61964)
DCAF1; 35.2 °C: 8900 a.u.
DCAF1; 70.01 °C: 54500 a.u.
DCAF1; 39.2 °C: 9990 a.u.
WDR5; 39.4 °C: 14300 a.u.
WDR5; 65.21 °C: 7530 a.u.
WDR5; 94.41 °C: 38600 a.u.
DCAF1; 57.21 °C: 25700 a.u.
WDR5; 71.81 °C: 7460 a.u.
WDR5; 27.6 °C: 14800 a.u.
WDR5; 85.61 °C: 40700 a.u.
WDR5; 80.81 °C: 25900 a.u.

Series 4
Target: E3 ubiquitin-protein ligase NEDD4 (Homo sapiens, UniProt P46934)
Read-out: enzyme activity
Action: inhibitor
Technique: TR-FRET
Tested at: 100 µM
Endpoint: inhibition
Construct (P46934 938-1319, limits assumed): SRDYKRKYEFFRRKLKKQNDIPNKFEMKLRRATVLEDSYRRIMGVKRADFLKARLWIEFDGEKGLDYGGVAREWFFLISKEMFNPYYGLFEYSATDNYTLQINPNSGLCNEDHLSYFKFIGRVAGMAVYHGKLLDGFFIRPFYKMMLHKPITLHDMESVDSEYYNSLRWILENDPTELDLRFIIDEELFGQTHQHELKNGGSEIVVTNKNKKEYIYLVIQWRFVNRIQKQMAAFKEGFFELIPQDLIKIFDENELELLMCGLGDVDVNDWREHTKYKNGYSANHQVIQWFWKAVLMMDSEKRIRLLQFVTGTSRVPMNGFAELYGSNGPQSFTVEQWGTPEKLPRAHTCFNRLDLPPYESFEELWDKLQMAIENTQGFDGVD
CCOC(=O)/C=C/CNCCCN1c2ccccc2CCc2ccc(Cl)cc21: 85.8%
C=CC(=O)NCCCN1c2ccccc2CCc2ccc(Cl)cc21: < 10%
CN(C)C(=O)/C=C/CNCCCN1c2ccccc2CCc2ccc(Cl)cc21.Cl: 30.7%
CNC(=O)/C=C/CNCCCN1c2ccccc2CCc2ccc(Cl)cc21.Cl: 60.5%

Series 5
Structure (SMILES): CC[C@@]1(c2cccc(C(F)(F)F)c2)C2=C(Nc3n[nH]cc31)[C@H](F)C(C)(C)CC2=O (single isomer, unassigned)
Tested at: 1 µM
Endpoint: remaining binding
STK10 (Homo sapiens, UniProt O94804); binding, competition with immobilised ligand: 100%
TBK1 (Homo sapiens, UniProt Q9UHD2); binding, competition with immobilised ligand: 61%
MAP3K6 (Homo sapiens, UniProt O95382); kinase binding, KINOMEscan; relative to: DMSO control: 100%
CDKL5 (Homo sapiens, UniProt O76039); kinase binding, KINOMEscan; relative to: DMSO control: 100%
OXSR1 (Homo sapiens, UniProt O95747); kinase binding, KINOMEscan; relative to: DMSO control: 100%
Tyrosine-protein kinase ABL1, phosphorylated (ABL1, Homo sapiens, UniProt P00519, M351T); binding, competition with immobilised ligand: 93%
KIT (Homo sapiens, UniProt P10721, V559D/V654A); binding, competition with immobilised ligand: 97%
PAK3 (Homo sapiens, UniProt O75914); kinase binding, KINOMEscan; relative to: DMSO control: 100%
FLT3 (Homo sapiens, UniProt P36888, D835H); binding, competition with immobilised ligand: 100%
CAMK1G (Homo sapiens, UniProt Q96NX5); binding, competition with immobilised ligand: 91%
STK38L (Homo sapiens, UniProt Q9Y2H1); binding, competition with immobilised ligand: 93%
RPS6KB1 (Homo sapiens, UniProt P23443); kinase binding, KINOMEscan; relative to: DMSO control: 68%
ACVR1 (Homo sapiens, UniProt Q04771); kinase binding, KINOMEscan; relative to: DMSO control: 95%
CASK (Homo sapiens, UniProt O14936); kinase binding, KINOMEscan; relative to: DMSO control: 96%
IKBKE (Homo sapiens, UniProt Q14164); binding, competition with immobilised ligand: 100%

Series 6
SMILES: CCN1/C(=C/C=C2\CCCC(/C=C/C3=[N+](CC)c4ccccc4C3(C)C)=C2NCCCCCCCCN2CCC(Nc3nc4ccccc4n3Cc3ccc(F)cc3)CC2)C(C)(C)c2ccccc21
Cell line: U-87 MG
Tested at: concentration not given
Relative to: DMSO
Endpoint: log2 fold change
item: TLR6 mRNA: -1.6
item: SLC12A6 mRNA: 1.27
item: RND1 mRNA: 2.7
item: DLG1 mRNA: -0.861
item: TMEM19 mRNA: -1.09
item: AEN mRNA: 1.17
item: NFKBIE mRNA: 1.45
item: ZWINT mRNA: -1.59
item: MYH15 mRNA: -1.77
item: FAM111A mRNA: -0.857
item: ADPRM mRNA: 1.17
item: RAD51 mRNA: -1.69
item: TSPAN4 mRNA: -1.41
item: TRIM39 mRNA: 0.81
item: RMI1 mRNA: -1.08
item: CKLF-CMTM1 mRNA: -4.35

Series 7
SMILES: CN(C1COC1)C(C)(C)/C=C(\C#N)C(=O)N1CCC[C@H]1Cn1nc(-c2ccc(Oc3ccccc3)cc2F)c2c(N)ncnc21
Tested at: 0.1 µM
Endpoint: inhibition
CK1; mean: -5%
MAPK13 (Homo sapiens, UniProt O15264); kinase activity: 1%
Cyclin-dependent kinase 6, with cyclin D3 (CDK6, Homo sapiens, UniProt Q00534); kinase activity: 6%
TSSK1B (Homo sapiens, UniProt Q9BXA7); kinase activity: 4%
FGFR3 (Homo sapiens, UniProt P22607); kinase activity: 5%
TSSK2 (Homo sapiens, UniProt Q96PF2); kinase activity: 5%
SPHK2 (Homo sapiens, UniProt Q9NRA0); kinase activity: 6%
CAMK2A (Homo sapiens, UniProt Q9UQM7); kinase activity: 3%
CDC42BPB (Homo sapiens, UniProt Q9Y5S2); kinase activity: 3%
PLK4 (Homo sapiens, UniProt O00444); kinase activity: 3%

Further values, each from its own experiment
Cc1ccc(O)c(C)c1-c1cnc2[nH]c(-c3cnc(N4CCC(CN5CCN(c6ccc(NC7CCC(=O)NC7=O)c(F)c6)CC5)CC4)nc3)cc2c1C#N (racemic)  pCDK1 (Thr14) level (HCC1569; in-cell western, item: CDK1 phospho-Thr14; 1.37 nM): 7.72% and 9.75%
Cc1ncsc1-c1ccc(C(CO)NC(=O)C2CC(O)CN2C(=O)C(C(C)C)n2cc(-c3ccc(COc4c(-c5c(C)c(F)cc6[nH]ncc56)c(C5CC5)cc5c(N6CC7CC6CN7)nc(OC6CCOCC6)nc45)cc3)nn2)cc1 (stereo not shown)  tumour volume (mouse, lung LXFA sample B PDX; 30 mg/kg twice weekly, day 0): 166 mm3 and 54 mm3 and 62.4 mm3 and 95.5 mm3 and 160 mm3 and 64.3 mm3 and 240 mm3 and 228 mm3
Cc1ccc(O)c(C)c1-c1cnc2[nH]c(-c3cnc(N4CCC(CN5CCN(c6ccc(NC7CCC(=O)NC7=O)cc6F)CC5)CC4)nc3)cc2c1C#N (stereo not shown)  Vd (male cynomolgus monkey, plasma; intravenous, 1 mg/kg): 3.5 L/kg
Cc1ncsc1-c1ccc(C2(NC(=O)C3CC(O)CN3C(=O)C(NC(=O)c3ccc(COc4c(-c5c(C)c(F)cc6[nH]ncc56)c(C5CC5)cc5c(N6CC7CC6CN7)nc(OC6CCOCC6)nc45)cc3)C(C)(C)C)CC2)cc1 (stereo not shown)  phospho-ERK1/2 level (AsPC-1; in-cell ELISA; 300 nM, individual replicates): 65.2% and 56.3% and 63.9% and 97.5% and 66.4% and 56.7%
Cc1ccc(O)c(C)c1-c1cnc2[nH]c(-c3cnc(N4CCC(CN5CCN(c6cc7c(cc6F)n(C6CCC(=O)NC6=O)c(=O)n7C)CC5)CC4)nc3)cc2c1C#N (stereo not shown)  degradation (PKMYT1 (Homo sapiens, UniProt Q99640); degrader, automated immunoblot; HCC1569; 10.00 nM): 90.9%
Cc1ncsc1-c1ccc(C(CO)NC(=O)C2CC(O)CN2C(=O)C(NC(=O)c2ccc(COc3c(-c4c(C)c(F)cc5[nH]ncc45)c(C4CC4)cc4c(N5CC6CC5CN6)nc(OC5CCOCC5)nc34)cc2)C(C)C)cc1 (stereo not shown)  phospho-ERK1/2 level (AsPC-1; in-cell ELISA; 3 µM, per-experiment values): 3.68% and 10.4% and 11.5%
COCC1CC2C(CCC3(C)C(O)CCC23)c2ccc(O)cc21 (stereo not shown)  expression ratio (SK-OV-3; DNA microarray, item: KIF20A; concentration not given; relative to: untreated control): 0.845 and 0.925 and 0.97 and 0.966 and 0.883
Cc1nc(C)c(C=[N+]([O-])C(C)(C)C)nc1C  TFAM protein level (Western blot; MPTP mouse model, substantia nigra cytosol; 30 mg/kg, unit not given; relative to: β-actin): 91.5 and 107 and 116 and 101
Cc1ncsc1-c1ccc(C2(NC(=O)C3CC(O)CN3C(=O)C(NC(=O)c3ccc(COc4c(-c5c(C)c(F)cc6[nH]ncc56)c(C5CC5)cc5c(N6CC7CC6CN7)nc(OC6CCOCC6)nc45)cc3)C(C)C)CC2)cc1 (stereo not shown)  phospho-ERK1/2 level (AsPC-1; in-cell ELISA; 1 µM, per-experiment values): 8.49% and 13.3% and 10.6%
Cc1ncc(-c2cc3c(C(F)(F)F)c(-c4c(C)ccc(O)c4C)cnc3[nH]2)cn1  pCDK1 (Thr14) level (HCC1569; in-cell western, item: CDK1 phospho-Thr14; 4.57 nM): 4.9 RLU and 8.48 RLU

Repeated from above (series 2):
3300 nM: 0.0052 and 0.0085
4.53 nM: 1.07 and 0.936
10000 nM: 0.00271 and 0.00218
4.57 nM: 0.971 and 1.02
0.503 nM: 1.05 and 0.98
13.6 nM: 0.815 and 0.813
123 nM: 0.516 and 0.61
40.7 nM: 0.744 and 0.704
